Measured values of several laboratories.
Each line is one published result; not all experiments were run side by side. Numbers after ± are the reported error.

For `CCCC[C@@H]1NC(=O)[C@@H](NC(=O)[C@H](CCC(=O)O)NC(=O)CNC(=O)CN2CCN(CC(=O)O)CCN(CC(=O)O)CCN(CC(=O)O)CC2)CCCCNC(=O)C[C@@H](C(N)=O)NC(=O)[C@H](C(C)C)NC(=O)[C@@H]2CCCN2C(=O)[C@H](CCCNC(=N)N)NC(=O)CNC(=O)[C@H](Cc2c[nH]c3ccccc23)NC(=O)[C@H](CCCNC(=N)N)NC(=O)[C@@H](Cc2ccccc2)NC(=O)[C@H](Cc2c[nH]cn2)NC(=O)[C@H](CCC(=O)O)NC1=O` [gallium-67 labelled], the tissue uptake was 0.15 ± 0.11 %ID/g (C57 mice with B16/F1 melanoma, blood; intravenous, 24 h).
With `N=C(N)NCCC[C@H](NC(=O)CON=C[C@H](F)[C@@H](O)[C@H](O)[C@H](O)CO)C(=O)NCC(=O)N[C@@H](CC(=O)O)C(=O)O` [fluorine-18 labelled] the tissue ratio was 2.19 ± 0.55 (nude mice, U-87 MG xenograft; intravenous, 0.5 h; baseline: tumour over blood).
With `NC12CNCCNCC(NCc3ccc(CNC(=O)CCCC(=O)NCc4ccc(-c5nncnn5)cc4)cc3)(CNCCNC1)CNCCNC2.[64Cu+2]` the tissue uptake was 4.2 ± 0.8 %ID/g (athymic nude mice SW1222 xenograft, blood; 1 h post injection, 24 h accumulation interval, added: huA33-TCO pretargeting).
The tissue uptake of `O=C([O-])CN1CCN(CC(=O)[O-])CCN(CC(=O)NCCc2ccc3c(c2)C2C=CCC2C(c2cc4c(cc2Br)OCO4)N3)CCN(CC(=O)[O-])CC1.[111In+3]` (centres unmarked) is reported as 0.5 ± 0.07 %ID/g (mice with Hec50 tumour xenograft, mammary gland; 4 h).
`O=C([O-])CN1CCN(CC(=O)[O-])CCN(CC(=O)[O-])CCN(CC(=O)[O-])CC1.[64Cu+2]` gave a tissue uptake of 0.16 %ID/g (healthy athymic nude mice, blood; intravenous, 24 h).
For `CN1C(=O)[C@@H](Cc2ccc(O)c(I)c2)NC(=O)CNC(=O)[C@H](Cc2ccc3ccccc3c2)NC(=O)[C@H](CCCNC(=N)N)NC(=O)[C@H]1CCCNC(=O)c1ccc(CNC(=O)CN2CCN(CC(=O)O)CCN(CC(=O)O)CCN(CC(=O)O)CC2)cc1` [lutetium-177 labelled], the tissue uptake was 0.85 ± 0.15 %ID/g (refers to: 177Lu radioactivity; female CB-17 SCID mice, Daudi xenograft, kidney; intravenous, 0.16 nmol per mouse, 96 h).
For `O=C([O-])c1cccc(CN(CCN(Cc2cn(Cc3ccccc3)nn2)Cc2cccc(C(=O)[O-])n2)Cc2cn(Cc3ccccc3)nn2)n1.[64Cu+2]`, the tissue uptake was 2.64 %ID/g (healthy athymic nude mice, stomach; intravenous, 15 min).
With `CCCC[C@H](NC(=O)CNC(=O)CNC(=O)CN1CCN(CC(=O)O)CCN(CC(=O)O)CC1)C(=O)N[C@H]1CC(=O)NCCCC[C@@H](C(N)=O)NC(=O)[C@H](Cc2c[nH]c3ccccc23)NC(=O)[C@H](CCCNC(=N)N)NC(=O)[C@@H](Cc2ccccc2)NC(=O)[C@H](Cc2c[nH]cn2)NC1=O` [gallium-67 labelled] the tissue uptake was 1.86 ± 0.24 %ID (C57 mice, female, B16/F1 melanoma, intestines; intravenous, 0.037 MBq, 0.5 h).

For quick reference, copied from above:
With `NC12CNCCNCC(NCc3ccc(CNC(=O)CCCC(=O)NCc4ccc(-c5nncnn5)cc4)cc3)(CNCCNC1)CNCCNC2.[64Cu+2]` the tissue uptake was 4.2 ± 0.8 %ID/g (athymic nude mice SW1222 xenograft, blood; 1 h post injection, 24 h accumulation interval, added: huA33-TCO pretargeting).
